Results pooled from the literature.
Every numbered part comes from another study and shows a few of its results, in no order. “And” joins repeats or separate records; there may be more than shown.
Sequence of UniProt P23458 (whole entry, looked up): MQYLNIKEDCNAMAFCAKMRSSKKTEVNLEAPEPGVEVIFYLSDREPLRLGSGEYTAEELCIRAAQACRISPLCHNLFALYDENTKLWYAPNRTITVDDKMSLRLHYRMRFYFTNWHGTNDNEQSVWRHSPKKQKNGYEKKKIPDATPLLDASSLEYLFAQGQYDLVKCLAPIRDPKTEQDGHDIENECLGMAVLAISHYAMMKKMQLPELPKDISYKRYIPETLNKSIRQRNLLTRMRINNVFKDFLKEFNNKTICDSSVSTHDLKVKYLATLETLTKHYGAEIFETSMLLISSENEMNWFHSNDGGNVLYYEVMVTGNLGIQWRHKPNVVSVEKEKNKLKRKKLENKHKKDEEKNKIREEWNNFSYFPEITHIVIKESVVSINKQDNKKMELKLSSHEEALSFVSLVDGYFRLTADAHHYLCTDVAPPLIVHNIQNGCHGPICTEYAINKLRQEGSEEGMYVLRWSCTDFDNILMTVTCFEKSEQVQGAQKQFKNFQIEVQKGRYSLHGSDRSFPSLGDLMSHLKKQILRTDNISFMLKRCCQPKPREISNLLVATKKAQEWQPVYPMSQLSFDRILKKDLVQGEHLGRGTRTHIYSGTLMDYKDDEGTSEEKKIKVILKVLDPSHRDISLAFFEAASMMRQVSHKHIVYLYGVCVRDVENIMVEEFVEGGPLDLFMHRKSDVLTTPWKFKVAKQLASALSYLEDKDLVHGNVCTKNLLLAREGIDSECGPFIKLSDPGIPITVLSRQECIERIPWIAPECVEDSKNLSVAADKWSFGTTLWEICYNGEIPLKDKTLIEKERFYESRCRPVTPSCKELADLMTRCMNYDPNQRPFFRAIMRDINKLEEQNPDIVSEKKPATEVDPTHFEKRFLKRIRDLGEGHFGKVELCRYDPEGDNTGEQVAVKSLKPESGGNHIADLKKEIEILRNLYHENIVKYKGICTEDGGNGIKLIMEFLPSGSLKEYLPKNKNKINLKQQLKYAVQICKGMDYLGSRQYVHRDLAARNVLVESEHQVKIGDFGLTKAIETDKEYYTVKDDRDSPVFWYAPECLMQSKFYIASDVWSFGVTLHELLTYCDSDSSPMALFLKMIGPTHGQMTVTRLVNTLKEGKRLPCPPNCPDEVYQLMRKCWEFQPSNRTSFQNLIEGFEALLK
Sequence of UniProt Q06418 (whole entry, looked up): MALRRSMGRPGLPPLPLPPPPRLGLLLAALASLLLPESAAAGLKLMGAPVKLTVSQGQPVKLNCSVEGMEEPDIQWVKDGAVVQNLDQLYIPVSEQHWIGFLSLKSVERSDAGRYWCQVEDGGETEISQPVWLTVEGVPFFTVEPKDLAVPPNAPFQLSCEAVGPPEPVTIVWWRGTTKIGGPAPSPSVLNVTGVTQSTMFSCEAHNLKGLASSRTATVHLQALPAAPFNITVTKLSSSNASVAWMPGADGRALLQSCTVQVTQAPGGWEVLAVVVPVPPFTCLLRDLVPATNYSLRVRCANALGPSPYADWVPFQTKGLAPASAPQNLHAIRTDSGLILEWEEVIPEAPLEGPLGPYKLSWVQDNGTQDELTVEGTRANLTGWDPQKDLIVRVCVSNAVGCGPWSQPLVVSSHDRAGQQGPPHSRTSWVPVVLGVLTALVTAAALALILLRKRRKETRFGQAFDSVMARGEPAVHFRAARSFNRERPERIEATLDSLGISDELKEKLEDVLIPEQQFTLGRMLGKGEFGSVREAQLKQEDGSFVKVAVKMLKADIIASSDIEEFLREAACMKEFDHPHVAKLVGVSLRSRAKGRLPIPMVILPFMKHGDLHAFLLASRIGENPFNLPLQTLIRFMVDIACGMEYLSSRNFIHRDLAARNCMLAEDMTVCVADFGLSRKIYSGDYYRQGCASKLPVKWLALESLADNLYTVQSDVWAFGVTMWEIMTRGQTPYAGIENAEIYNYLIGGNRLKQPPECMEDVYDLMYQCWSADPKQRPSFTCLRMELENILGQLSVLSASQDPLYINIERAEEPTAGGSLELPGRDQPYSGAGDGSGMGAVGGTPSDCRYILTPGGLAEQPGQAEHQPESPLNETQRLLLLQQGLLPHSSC
Sequence of UniProt Q14012 (whole entry, looked up): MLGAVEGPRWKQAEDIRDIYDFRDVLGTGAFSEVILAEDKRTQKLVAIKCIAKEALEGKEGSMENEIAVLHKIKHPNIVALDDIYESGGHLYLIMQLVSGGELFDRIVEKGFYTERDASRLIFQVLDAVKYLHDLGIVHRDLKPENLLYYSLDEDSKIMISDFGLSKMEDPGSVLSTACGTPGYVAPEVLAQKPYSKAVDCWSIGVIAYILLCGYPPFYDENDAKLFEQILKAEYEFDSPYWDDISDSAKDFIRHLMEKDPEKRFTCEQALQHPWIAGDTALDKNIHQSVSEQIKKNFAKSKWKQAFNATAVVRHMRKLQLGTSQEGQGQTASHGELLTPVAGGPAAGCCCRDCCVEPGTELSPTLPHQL

Block 1 — observed: enzyme activity; action: inhibitor; tested at: 77 µM; baseline: untreated; endpoint: remaining activity
Target: DNA polymerase theta, ATPase domain (POLQ, Homo sapiens, UniProt O75417)
Sequence of UniProt O75417 (whole entry, unmodified, looked up): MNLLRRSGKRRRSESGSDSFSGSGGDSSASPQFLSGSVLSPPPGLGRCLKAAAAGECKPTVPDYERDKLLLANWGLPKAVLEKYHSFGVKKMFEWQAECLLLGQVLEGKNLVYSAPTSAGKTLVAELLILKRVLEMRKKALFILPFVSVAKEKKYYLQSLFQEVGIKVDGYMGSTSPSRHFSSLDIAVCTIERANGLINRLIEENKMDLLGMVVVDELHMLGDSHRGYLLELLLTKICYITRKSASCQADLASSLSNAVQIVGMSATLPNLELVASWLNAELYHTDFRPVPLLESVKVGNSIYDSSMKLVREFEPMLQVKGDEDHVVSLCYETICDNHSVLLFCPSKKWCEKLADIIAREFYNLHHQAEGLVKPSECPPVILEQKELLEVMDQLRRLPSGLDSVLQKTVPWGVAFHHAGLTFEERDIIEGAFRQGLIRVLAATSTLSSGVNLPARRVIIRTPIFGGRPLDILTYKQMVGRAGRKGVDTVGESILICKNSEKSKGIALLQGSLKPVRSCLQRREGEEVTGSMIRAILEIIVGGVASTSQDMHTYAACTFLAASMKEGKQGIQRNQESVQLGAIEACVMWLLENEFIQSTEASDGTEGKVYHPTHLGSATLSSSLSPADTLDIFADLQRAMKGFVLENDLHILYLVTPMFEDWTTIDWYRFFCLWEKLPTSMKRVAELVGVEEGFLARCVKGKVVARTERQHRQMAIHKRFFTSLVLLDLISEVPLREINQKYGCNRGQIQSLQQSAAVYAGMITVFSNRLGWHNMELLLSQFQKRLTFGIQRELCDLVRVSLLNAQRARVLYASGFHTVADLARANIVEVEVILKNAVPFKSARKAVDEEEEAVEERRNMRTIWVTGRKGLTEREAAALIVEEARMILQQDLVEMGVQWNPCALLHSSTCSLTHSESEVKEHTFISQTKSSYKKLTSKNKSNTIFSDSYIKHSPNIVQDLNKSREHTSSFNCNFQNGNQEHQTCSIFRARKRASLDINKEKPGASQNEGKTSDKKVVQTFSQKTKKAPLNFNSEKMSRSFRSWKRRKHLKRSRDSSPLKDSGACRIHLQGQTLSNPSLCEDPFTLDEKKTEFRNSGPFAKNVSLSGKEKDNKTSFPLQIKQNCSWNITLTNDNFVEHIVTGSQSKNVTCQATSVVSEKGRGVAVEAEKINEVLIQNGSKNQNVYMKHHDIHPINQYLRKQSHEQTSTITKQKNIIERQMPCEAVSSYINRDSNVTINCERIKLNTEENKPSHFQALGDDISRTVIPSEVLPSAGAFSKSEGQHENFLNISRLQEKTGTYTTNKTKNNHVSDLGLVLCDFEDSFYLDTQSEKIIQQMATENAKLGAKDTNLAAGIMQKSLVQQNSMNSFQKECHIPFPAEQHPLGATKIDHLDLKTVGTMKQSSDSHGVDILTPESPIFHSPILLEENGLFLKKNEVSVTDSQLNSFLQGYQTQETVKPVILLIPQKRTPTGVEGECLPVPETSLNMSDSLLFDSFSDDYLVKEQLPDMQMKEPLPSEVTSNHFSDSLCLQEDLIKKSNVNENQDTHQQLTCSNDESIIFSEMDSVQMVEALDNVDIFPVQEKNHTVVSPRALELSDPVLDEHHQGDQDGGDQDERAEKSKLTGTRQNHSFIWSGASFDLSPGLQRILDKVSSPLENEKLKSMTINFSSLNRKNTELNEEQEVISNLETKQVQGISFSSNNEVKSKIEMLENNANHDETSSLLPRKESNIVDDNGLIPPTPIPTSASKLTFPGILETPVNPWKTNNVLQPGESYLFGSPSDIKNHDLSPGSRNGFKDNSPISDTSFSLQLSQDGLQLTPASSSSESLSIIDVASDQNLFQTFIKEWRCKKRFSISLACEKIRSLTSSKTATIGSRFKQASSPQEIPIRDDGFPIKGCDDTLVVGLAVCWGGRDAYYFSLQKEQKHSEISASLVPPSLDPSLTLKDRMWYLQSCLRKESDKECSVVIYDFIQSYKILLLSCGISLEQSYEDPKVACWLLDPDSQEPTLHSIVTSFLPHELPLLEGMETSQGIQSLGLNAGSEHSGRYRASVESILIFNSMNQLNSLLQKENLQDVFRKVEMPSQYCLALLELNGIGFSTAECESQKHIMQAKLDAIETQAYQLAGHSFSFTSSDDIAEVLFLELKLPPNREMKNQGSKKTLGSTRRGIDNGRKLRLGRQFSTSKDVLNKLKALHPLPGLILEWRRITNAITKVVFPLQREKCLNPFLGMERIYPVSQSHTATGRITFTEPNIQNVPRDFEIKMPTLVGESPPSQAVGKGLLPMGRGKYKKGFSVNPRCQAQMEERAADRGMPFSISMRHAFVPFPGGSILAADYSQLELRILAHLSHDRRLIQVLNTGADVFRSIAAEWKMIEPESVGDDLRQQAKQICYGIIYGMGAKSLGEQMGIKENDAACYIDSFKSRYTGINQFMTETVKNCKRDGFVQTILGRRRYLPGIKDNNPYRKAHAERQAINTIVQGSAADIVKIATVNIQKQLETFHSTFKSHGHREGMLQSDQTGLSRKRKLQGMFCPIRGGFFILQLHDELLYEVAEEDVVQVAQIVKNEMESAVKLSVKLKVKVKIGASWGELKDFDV
C[C@@H]1C(=O)O[C@H]2[C@H](O)[C@@]34[C@H]5C[C@@H](C(C)(C)C)[C@]36[C@@H](OC(=O)[C@@H]6O)O[C@@]4(C(=O)O5)[C@@]12O: 86.9%
COC(=O)C(C)(N)Cc1ccc(O)cc1 (racemic): 101%
Clc1cnccn1: 101%
Cc1cc(NC2CCCCC2)nc(-n2nc(C)cc2C)n1: 101%
CCC1(C)CC(=O)NC1=O (stereo not drawn): 102%
O=C(O)/C(S)=C/c1c[nH]c2ccc(F)cc12: 85.9%
CC(C)c1nc(CN(C)C(=O)N[C@H](C(=O)N[C@@H](Cc2ccccc2)C[C@H](O)[C@H](Cc2ccccc2)NC(=O)OCc2cncs2)C(C)C)cs1: 103%
Cc1cc(Nc2cc(N3CCN(C)CC3)nc(Sc3ccc(NC(=O)C4CC4)cc3)n2)n[nH]1: 96.3% and 103% and 99.9% and 102%
C=CC(=O)Nc1cc2c(Nc3ccc(F)c(Cl)c3)ncnc2cc1C#CC(C)(C)N1CCN(C)CC1: 105% and 111% and 109%
COc1ccc(-c2coc3cc(O)cc(O)c3c2=O)cc1: 77.8%
C=C1C(=O)O[C@H]2[C@H]1CC/C(C)=C/CC[C@@]1(C)O[C@@H]21: 130%
Cc1c(Nc2ncccc2C(=O)O)cccc1C(F)(F)F: 95.6% and 90.8%
COc1ccc(Cl)cc1NC(=O)Nc1cc(C)nc2ccccc12: 119%
O=C(O)[C@]1(Cc2cccc(Nc3nccs3)n2)CC[C@@H](Oc2cccc(Cl)c2F)CC1: 68.6%

Block 2 — observed: cell-free assay; method: competition with immobilised ligand; tested at: 1 µM; endpoint: remaining binding
Compound: CNCc1ccccc1-c1csc([C@H](C)Nc2nc(C)nc3cc(OC)c(OC)cc23)c1
Calcium/calmodulin-dependent protein kinase type IV (CAMK4, Homo sapiens, UniProt Q16566): 99%
Serine/threonine-protein kinase DCLK3 (DCLK3, Homo sapiens, UniProt Q9C098): 100%
Casein kinase I isoform gamma-2 (CSNK1G2, Homo sapiens, UniProt P78368): 100%
Macrophage-stimulating protein receptor (MST1R, Homo sapiens, UniProt Q04912): 100%
Serine/threonine-protein kinase B-raf (BRAF, Homo sapiens, UniProt P15056, V600E): 84%
Myosin light chain kinase family member 4 (MYLK4, Homo sapiens, UniProt Q86YV6): 100%
Myosin light chain kinase, smooth muscle (MYLK, Homo sapiens, UniProt Q15746): 94%
Mast/stem cell growth factor receptor Kit (KIT, Homo sapiens, UniProt P10721, D816V): 100%
Serine/threonine-protein kinase PLK2 (PLK2, Homo sapiens, UniProt Q9NYY3): 83%
Serine/threonine-protein kinase Sgk3 (SGK3, Homo sapiens, UniProt Q96BR1): 93%
Insulin receptor (INSR, Homo sapiens, UniProt P06213): 89%
Dual specificity protein kinase TTK (TTK, Homo sapiens, UniProt P33981): 100%
Rho-associated protein kinase 2 (ROCK2, Homo sapiens, UniProt O75116): 100%
cGMP-dependent protein kinase 1 (PRKG1, Homo sapiens, UniProt Q13976): 100%
Mast/stem cell growth factor receptor Kit (KIT, Homo sapiens, UniProt P10721, D816H): 95%
Phosphatidylinositol 3-kinase catalytic subunit type 3 (PIK3C3, Homo sapiens, UniProt Q8NEB9): 93%
Tyrosine-protein kinase JAK1, JH2 (JAK1, Homo sapiens, UniProt P23458): 68%
Serine/threonine-protein kinase BRSK2 (BRSK2, Homo sapiens, UniProt Q8IWQ3): 100%
Receptor-interacting serine/threonine-protein kinase 1 (RIPK1, Homo sapiens, UniProt Q13546): 100%
5'-AMP-activated protein kinase catalytic subunit alpha-2 (PRKAA2, Homo sapiens, UniProt P54646): 100%
Receptor tyrosine-protein kinase erbB-3 (ERBB3, Homo sapiens, UniProt P21860): 87%
Fibroblast growth factor receptor 4 (FGFR4, Homo sapiens, UniProt P22455): 100%
Ephrin type-A receptor 4 (EPHA4, Homo sapiens, UniProt P54764): 100%
Ephrin type-A receptor 7 (EPHA7, Homo sapiens, UniProt Q15375): 100%
Dual specificity testis-specific protein kinase 1 (TESK1, Homo sapiens, UniProt Q15569): 100%

Block 3 — action: inhibitor; endpoint: inhibition
Compound: Cc1nc(Nc2ncc(C(=O)Nc3c(C)cccc3Cl)s2)cc(N2CCN(CCO)CC2)n1
Serine/threonine-protein kinase STK11 (STK11, Homo sapiens, UniProt Q15831); 1 µM: < 50%
cAMP-dependent protein kinase catalytic subunit PRKX (PRKX, Homo sapiens, UniProt P51817); 10 µM: < 50%
Aurora kinase A (AURKA, Homo sapiens, UniProt O14965); 10 µM: < 50%
Tyrosine-protein kinase receptor TYRO3 (TYRO3, Homo sapiens, UniProt Q06418); 10 µM: 91%
Calcium/calmodulin-dependent protein kinase type 1 (CAMK1, Homo sapiens, UniProt Q14012); 10 µM: < 50%
LIM domain kinase 1 (LIMK1, Homo sapiens, UniProt P53667); 10 µM: 99%
Tyrosine-protein kinase JAK2 (JAK2, Homo sapiens, UniProt O60674); 10 µM: 90%
Mitogen-activated protein kinase 9 (MAPK9, Homo sapiens, UniProt P45984); 1 µM: < 50%
Ephrin type-A receptor 1 (EPHA1, Homo sapiens, UniProt P21709); 10 µM: 100%

Block 4 — Compound: COc1cccc(-c2cc(=O)c3ccccc3o2)c1N; observed: enzyme activity; action: inhibitor; tested at: 0.5 µM; baseline: control; endpoint: remaining activity
Serine/threonine-protein kinase PAK 6 (PAK6, Homo sapiens, UniProt Q9NQU5): 95.5%
Serine/threonine-protein kinase Sgk2 (SGK2, Homo sapiens, UniProt Q9HBY8): 95.9%
SRSF protein kinase 1 (SRPK1, Homo sapiens, UniProt Q96SB4): 93.4%
Ephrin type-A receptor 2 (EPHA2, Homo sapiens, UniProt P29317): 105%
Tyrosine-protein kinase JAK1 (JAK1, Homo sapiens, UniProt P23458): 98.9%
Casein kinase I isoform epsilon (CSNK1E, Homo sapiens, UniProt P49674): 97.5%
Calcium/calmodulin-dependent protein kinase type 1 (CAMK1, Homo sapiens, UniProt Q14012): 98.5%
Cyclin-dependent kinase 2, with cyclin E (CDK2, Homo sapiens, UniProt P24941): 95.3%
Insulin-like growth factor 1 receptor (IGF1R, Homo sapiens, UniProt P08069): 91.3%
Protein kinase C theta type (PRKCQ, Homo sapiens, UniProt Q04759): 103%
Serine/threonine-protein kinase SIK2 (SIK2, Homo sapiens, UniProt Q9H0K1): 102%
Calcium/calmodulin-dependent protein kinase kinase 1 (CAMKK1, Homo sapiens, UniProt Q8N5S9): 98.8%
Ephrin type-A receptor 6 (EPHA6, Homo sapiens, UniProt Q9UF33): 81.2%
Tyrosine-protein kinase Tec (TEC, Homo sapiens, UniProt P42680): 99.2%
Dual specificity protein kinase CLK2 (CLK2, Homo sapiens, UniProt P49760): 103%
Mitogen-activated protein kinase kinase kinase 20 (MAP3K20, Homo sapiens, UniProt Q9NYL2): 103%
Vascular endothelial growth factor receptor 1 (FLT1, Homo sapiens, UniProt P17948): 87.7%
Casein kinase I isoform delta (CSNK1D, Homo sapiens, UniProt P48730): 99.1%
Serine/threonine-protein kinase PAK 1 (PAK1, Homo sapiens, UniProt Q13153): 97.5%
Protein kinase C zeta type (PRKCZ, Homo sapiens, UniProt Q05513): 99.1%
Tyrosine-protein kinase receptor TYRO3 (TYRO3, Homo sapiens, UniProt Q06418): 96.9%
Dual specificity protein kinase CLK1 (CLK1, Homo sapiens, UniProt P49759): 97.7%
Muscle, skeletal receptor tyrosine-protein kinase (MUSK, Homo sapiens, UniProt O15146): 94.2%
Ribosomal protein S6 kinase alpha-3 (RPS6KA3, Homo sapiens, UniProt P51812): 93.6%

A few entries again (block 1):
COC(=O)C(C)(N)Cc1ccc(O)cc1 (racemic): 101%
CCC1(C)CC(=O)NC1=O (stereo not drawn): 102%
O=C(O)[C@]1(Cc2cccc(Nc3nccs3)n2)CC[C@@H](Oc2cccc(Cl)c2F)CC1: 68.6%
Cc1c(Nc2ncccc2C(=O)O)cccc1C(F)(F)F: 95.6% and 90.8%
COc1ccc(-c2coc3cc(O)cc(O)c3c2=O)cc1: 77.8%
C[C@@H]1C(=O)O[C@H]2[C@H](O)[C@@]34[C@H]5C[C@@H](C(C)(C)C)[C@]36[C@@H](OC(=O)[C@@H]6O)O[C@@]4(C(=O)O5)[C@@]12O: 86.9%
C=CC(=O)Nc1cc2c(Nc3ccc(F)c(Cl)c3)ncnc2cc1C#CC(C)(C)N1CCN(C)CC1: 105% and 111% and 109%
Clc1cnccn1: 101%
